Experimental data of several laboratories.
Numbered parts are unrelated; each lists some results of a single study.

Series 1
Target: Sal-like protein 4, full length isoform A (SALL4, Homo sapiens, UniProt Q9UJQ4, residues 1-1053)
Sequence of UniProt Q9UJQ4 (whole entry, looked up): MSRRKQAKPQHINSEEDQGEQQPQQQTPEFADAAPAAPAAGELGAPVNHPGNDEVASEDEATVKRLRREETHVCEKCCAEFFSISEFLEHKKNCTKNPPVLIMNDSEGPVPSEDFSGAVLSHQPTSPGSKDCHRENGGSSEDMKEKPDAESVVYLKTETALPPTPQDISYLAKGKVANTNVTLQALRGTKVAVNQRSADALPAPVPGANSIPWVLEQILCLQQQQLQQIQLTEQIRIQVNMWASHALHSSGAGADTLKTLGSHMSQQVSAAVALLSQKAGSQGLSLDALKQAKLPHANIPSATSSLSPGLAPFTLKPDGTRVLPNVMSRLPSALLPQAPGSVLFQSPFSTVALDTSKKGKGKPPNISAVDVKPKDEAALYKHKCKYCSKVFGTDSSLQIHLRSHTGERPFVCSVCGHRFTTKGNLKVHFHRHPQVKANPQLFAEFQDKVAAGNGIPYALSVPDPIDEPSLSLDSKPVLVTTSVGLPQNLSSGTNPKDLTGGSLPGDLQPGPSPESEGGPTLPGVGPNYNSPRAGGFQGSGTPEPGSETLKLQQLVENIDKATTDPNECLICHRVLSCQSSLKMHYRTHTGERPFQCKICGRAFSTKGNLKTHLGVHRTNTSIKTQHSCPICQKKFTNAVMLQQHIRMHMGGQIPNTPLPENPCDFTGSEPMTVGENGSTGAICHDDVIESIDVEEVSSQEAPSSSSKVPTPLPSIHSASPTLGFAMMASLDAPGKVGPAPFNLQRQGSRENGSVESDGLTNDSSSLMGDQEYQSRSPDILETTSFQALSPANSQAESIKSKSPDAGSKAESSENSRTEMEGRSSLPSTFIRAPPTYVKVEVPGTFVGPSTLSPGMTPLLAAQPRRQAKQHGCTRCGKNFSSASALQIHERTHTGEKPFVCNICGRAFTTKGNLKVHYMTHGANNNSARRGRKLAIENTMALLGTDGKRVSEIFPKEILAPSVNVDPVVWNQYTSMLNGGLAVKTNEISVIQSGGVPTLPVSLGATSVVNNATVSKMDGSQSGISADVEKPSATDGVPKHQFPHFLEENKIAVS
Method: universal PBM
Molecule type: double-stranded DNA, one strand shown
Sample: in vitro
Concentration: 600 nM
Setting: 8-mer, flanks averaged, mean of replicates
Direction: higher = stronger binding
Strand | E-score
AATGACCA | 0.0339
ATGGTCCA | -0.155
GATATACC | 0.219
GGTGTAAC | -0.0237
CCCAGCAA | -0.0254
GATCAATC | -0.0165
ATAAGGAT | 0.265
GAACAAAC | 0.19
AGCTTAGC | -0.0939
GCCTCCCA | -0.264
AAGGCGCT | -0.0734
AGCGCTCC | -0.19
GGGGCCAA | -0.357
GGGGTGAC | -0.147
AGTGGTCG | -0.18
ACCCTGAC | -0.169
AACGAATT | 0.178
AGCTCATG | -0.0644
AAATAGTC | 0.0991
CAAACAAG | -0.0788
GACCCCGA | -0.251
AGATCCTG | -0.126
GAAACAGC | -0.098

Series 2
Target: Fragile X messenger ribonucleoprotein 1, C-terminal low-complexity region (Fmr1, Mus musculus, UniProt P35922)
Method: RNA Bind-n-Seq
Molecule type: RNA
Sample: in vitro
Concentration: 200 nM
Setting: whole 134-nt RNA, ends assumed
Together with: 150 mM KCl
Reference: input library
Direction: higher = stronger binding
Shared flanks, not repeated: GGGAGUUCUACAGUCCGACGAUC … UGGAAUUCUCGGGUGUCAAGG
Strand | log2 enrichment
UAACUUUAGAGGAGGAUCUGAUGGAUAUGGCAGUGGACGUGGAUUUGGGGAUGGCUUUAAUGGGUAUGGAGGAGGACCUGGAGGUGGCAA | 0.212
CUCAAGUCCUGUGCUACACAUCGUAUGUACCGAAUCGGGAAGGGAAGGAAGGGGAAAGUAUUAUGUUACGCCGUUCGGAUCUGCACUUCC | 0.766
ACCAUGCAGGUGGGCAUCUUUGAGAAGUGGGGCAAGGGGGGGAUAGGGAGGGGGGUAACACUUUGGGAACAGGUGGUCCCAGGUCGUUUC | 0.768
ACCAUGCAGGUGGGCAUCUUUGGGAAGUGGGGCAAGGGGGGGAUAGGGAGGGGGGUAACACUUUGGGAACAGGUGGUCCCAGGUAGUUUC | 0.593
UCCUGUGCUACACAUCGUAUGUACCGAAUCGGGGUUUUUGGGUUUUUGGGUUUUUGGGGAAAGUAUUAUGUUACGCCGUUCGGAUCUGCA | 0.45
CAAGUCCUGUGCUACACAUCGUAUGUACCGAAUCGGAAAGGAAAAAAAGGUUUGGAAAGUAUUAUGUUACGCCGUUCGGAUCUGCACUUC | -1.2
UCCUGUGCUACACAUCGUAUGUACCGAAUCGGGAAAAAGGGGAAAAAGGGGAAAAAGGGAAAGUAUUAUGUUACGCCGUUCGGAUCUGCA | -0.0132
AGUCCUGUGCUACACAUCGUAUGUACCGAAUCGGGGCCCCGGCCCCGGGCCCCGGGGAAAGUAUUAUGUUACGCCGUUCGGAUCUGCACU | -0.909
UUCCUCAAGUCCUGUGCUACACAUCGUAUGUACCGAAUCGGGCGGCGGCGGAAAGUAUUAUGUUACGCCGUUCGGAUCUGCACUUCCAGC | -0.0404

Series 3
Target: Probable WRKY transcription factor 33, C-terminal DNA-binding domain (WRKY33, Arabidopsis thaliana, UniProt Q8S8P5, residues 346-449)
Method: DNA-protein interaction ELISA
Molecule type: double-stranded DNA, one strand shown
Sample: in vitro, bacterial lysate
Concentration: not given
Setting: whole dsDNA probe, crude lysate protein
Reference: highest signal in screen
Direction: higher = stronger binding
Residues (chain): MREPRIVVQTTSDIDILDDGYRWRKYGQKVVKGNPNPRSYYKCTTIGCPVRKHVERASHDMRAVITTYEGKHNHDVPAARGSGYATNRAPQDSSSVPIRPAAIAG
Strand | relative absorbance
AAAAAATGGTCGTCGTACTCGTGGTCAAAA | 99.5 % of maximum
AAAAAAAAGGACATTTTTTCTTTTTGAAAA | 29.4 % of maximum
AAAAAACCCCAGATTTCCAGCAGTTCAAAA | 42.2 % of maximum
AAAAAATCCGTTCCCATTTGTCCGTCAAAA | 28.5 % of maximum
AAAAAATCCATTCTTCGCGTTTATCCAAAA | 44 % of maximum
AAAAAAATCAGCCTGACTCTGGGCGTAAAA | 84.9 % of maximum
AAAAAAGTCCCGCGCTAAGCTTTAAAAAAA | 38 % of maximum
AAAAAACTCGCGCTTGCATCTGTGCGAAAA | 28.6 % of maximum
AAAAAATGCCATTGTACCTGTGTTCGAAAA | 23.5 % of maximum
AAAAAATCACAATACCTTCTCGTCATAAAA | 47.7 % of maximum
AAAAAACGGGATTCGAAACTTTTTGTAAAA | 32.1 % of maximum
AAAAAACACGCCATTGACACTGGTAAAAAA | 63.2 % of maximum
AAAAAATTTGGTCTTCGTCCTCGCTTAAAA | 91.3 % of maximum
AAAAAATCCTATCTTGGCTTTGGCCTAAAA | 43.4 % of maximum
AAAAAATCAACCATTATGGTATTACTAAAA | 85.7 % of maximum

Series 4
Target: RNA binding protein fox-1 homolog 2, RRM domain, GST-SBP tag (RBFOX2, Homo sapiens, UniProt O43251-10, residues 100-194)
Method: RNA Bind-n-Seq
Molecule type: RNA
Sample: in vitro
Concentration: 365 nM
Setting: natural RNA segment, single round, ends assumed
Reference: no-protein control
Direction: higher = stronger binding
Shared flanks, not repeated: GGGAGUUCUACAGUCCGACGAUC … UGGAAUUCUCGGGUGCCAA
Construct (chain): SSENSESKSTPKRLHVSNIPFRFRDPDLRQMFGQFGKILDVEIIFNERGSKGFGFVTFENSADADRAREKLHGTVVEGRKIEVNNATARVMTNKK
Strand | RBNS enrichment (R)
UUGGGAGACAAACUAAGCAAAUCUGGGAUGGGGGCAGUCUGACCUUCUUCCUGCUUCGGUGAUCCGAGGCUAGAGGGAGCUGCAUGGUAUCUUGUUACUAACUCAGUAUG | 0.923
UUCAUUUACUUCCAAAGAGGCAAAAGCAGCUGGAAUUGGCUUACAGCACAUGCUUUGUUUCAUGUUAUGGGUGAGGACCUACAUACACUCUUACUUUAGCAGUCACUUAA | 0.616
AAGCGCUUACACAUCCCCUCUGGUGCUUGGUUGAACAAGGGAAUCACGAGACAAUGAAAAUGCAGAGACUGAACUUGGGGGUCGUUCUGUGCCUUCCAGCAUCUUGUACA | 1.09
UGGCCUUCUGGAAGUAUCAGCGGCCUGAAGGCCUCUGGCUACCUCGACUUUGGACAGAGUAAUGACUCCCCAGAAAACGUCAUAUAAGACUUUACCAGCCCCUGAGAGGA | 0.423
AAUCUCUACUCAUCCCUCCUUCCCUAGAGGAGCCUUUGAGGAGCCUCUUUCCUGGGGACAAAAGGCUCUCCUAGACAUGAGUGAGCAGGUAAUCGCCCAACUUGGCUUUG | 0.429
UGUGUGUAAACAAACGUGCACGUGCUCGCACUUAGCUGCGCAGGCUUUCUGUGCAUGAACUAGAAAAGGAGACAUUAUAUUAAAUUAGCCACCUUUUGGCCCCUAAGCUC | 0.481
UGAUGUCAGUGCUGACUGAGUCCAUGCUAACUGAGAUCUGUAGGCAGAGCUCUGCCCUGUAGCUCCCUGCCUCAGUUUAUCUUUGCAAUACAAAGCAAAUCCUUCCCCAG | 0.314
AAGACAUUCGUUUGCUUUAGUGAAACUCCCUCGCUCCAGCCUCUCUAAGUAGCUCUUCCCGCUGUGUCCGUGUGCACACUGUAGCCCCACAGCCCCGUAGAACCUGCAGU | 0.834

Series 5
Target: Histone acetyltransferase KAT6A, winged helix 2, GST fusion (KAT6A, Homo sapiens, UniProt Q92794, residues 85-181)
Method: protein binding microarray
Molecule type: double-stranded DNA, one strand shown
Sample: in vitro
Concentration: not given
Setting: 8-mer, flanks averaged, mean of 2 arrays, mostly near background
Reference: not given
Direction: higher = stronger binding
Construct (chain): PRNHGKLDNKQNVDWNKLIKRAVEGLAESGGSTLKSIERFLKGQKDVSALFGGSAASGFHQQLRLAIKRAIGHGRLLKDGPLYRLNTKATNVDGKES
Strand | E-score
ACAGACGG | -0.117
CATTTCCA | 0.0205
CTTACTAA | 0.126
CAAAGAGG | -0.0933
ACGAAGGG | 0.15
GCCCTAGA | -0.0581
AGATACGG | -0.0869
CCCGACGA | 0.0651
CTGACAAG | 0.0244
CATATAGA | -0.0865
GCGGTTAA | 0.134
CCCTGGGA | 0.107
CATGTGCA | -0.0996
GGCGACGA | -0.00471
CATCTCCG | 0.124
AGGGACCG | 0.111
AGTGTTAC | 0.0444
ACTCTTCG | -0.129
CGAAAAAA | 0.112
CCTCGACG | 0.0327
CTCCCCCA | -0.129
ACGATTGC | 0.0334

For quick reference, copied from above (series 5):
Strand | E-score
ACAGACGG | -0.117
ACGAAGGG | 0.15
GCCCTAGA | -0.0581
CCTCGACG | 0.0327
CTGACAAG | 0.0244
CCCTGGGA | 0.107
CATATAGA | -0.0865
CAAAGAGG | -0.0933
AGGGACCG | 0.111
CCCGACGA | 0.0651
